Experimental data gathered from unrelated publications.
Each numbered part is a random draw from the data of one study; scales do not carry over between parts. Substitutions count along the parent as printed.
UniProt P35462, sequence (whole entry, looked up): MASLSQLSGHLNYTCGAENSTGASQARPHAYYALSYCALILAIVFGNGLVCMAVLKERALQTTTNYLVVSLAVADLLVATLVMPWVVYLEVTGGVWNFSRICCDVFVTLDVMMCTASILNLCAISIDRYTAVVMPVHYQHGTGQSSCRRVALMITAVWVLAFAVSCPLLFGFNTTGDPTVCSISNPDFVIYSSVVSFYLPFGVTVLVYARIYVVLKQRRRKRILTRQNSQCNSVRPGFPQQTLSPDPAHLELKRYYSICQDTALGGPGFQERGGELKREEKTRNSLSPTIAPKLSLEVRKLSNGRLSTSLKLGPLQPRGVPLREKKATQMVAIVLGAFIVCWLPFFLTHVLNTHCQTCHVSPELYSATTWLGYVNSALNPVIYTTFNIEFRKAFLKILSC
UniProt Q5BJF2, sequence (whole entry, looked up): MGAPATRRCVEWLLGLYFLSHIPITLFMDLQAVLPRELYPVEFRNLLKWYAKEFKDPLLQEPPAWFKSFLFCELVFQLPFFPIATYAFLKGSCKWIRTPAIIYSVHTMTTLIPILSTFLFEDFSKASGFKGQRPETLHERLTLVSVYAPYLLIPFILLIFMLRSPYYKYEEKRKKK
UniProt P28566, sequence (whole entry, looked up): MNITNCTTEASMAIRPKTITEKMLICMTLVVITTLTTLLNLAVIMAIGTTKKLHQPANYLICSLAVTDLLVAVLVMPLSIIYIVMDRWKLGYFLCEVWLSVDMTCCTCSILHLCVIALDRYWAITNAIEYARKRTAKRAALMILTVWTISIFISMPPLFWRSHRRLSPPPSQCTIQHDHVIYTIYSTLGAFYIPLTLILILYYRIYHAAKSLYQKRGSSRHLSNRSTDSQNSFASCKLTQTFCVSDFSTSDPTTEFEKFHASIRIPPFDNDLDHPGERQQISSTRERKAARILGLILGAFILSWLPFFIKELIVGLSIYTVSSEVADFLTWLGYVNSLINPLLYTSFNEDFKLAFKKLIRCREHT
UniProt P21917, sequence (whole entry, looked up): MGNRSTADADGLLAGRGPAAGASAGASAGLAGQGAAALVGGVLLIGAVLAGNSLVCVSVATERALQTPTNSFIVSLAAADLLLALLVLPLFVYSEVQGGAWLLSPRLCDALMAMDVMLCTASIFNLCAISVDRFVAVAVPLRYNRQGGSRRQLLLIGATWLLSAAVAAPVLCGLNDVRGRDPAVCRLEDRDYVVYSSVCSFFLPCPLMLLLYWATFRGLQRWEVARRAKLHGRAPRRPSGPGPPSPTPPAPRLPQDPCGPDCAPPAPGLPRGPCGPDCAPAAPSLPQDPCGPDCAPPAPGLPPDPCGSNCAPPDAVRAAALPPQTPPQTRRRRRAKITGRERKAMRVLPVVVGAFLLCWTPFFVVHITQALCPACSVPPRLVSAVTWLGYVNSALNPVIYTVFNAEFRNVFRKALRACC

Series 1 — method: DHFR PCA, deep sequencing; medium: yeast; together with: (+)-ABA 710 µM; reference: wild-type fitted maximum; reading: higher = stronger binding
Target: ABI1, truncated, D143A, DHFR fusion (Arabidopsis thaliana)
Notes: methotrexate growth selection, single substitutions
Starting sequence: PYL1, truncated, DHFR fusion (Arabidopsis thaliana); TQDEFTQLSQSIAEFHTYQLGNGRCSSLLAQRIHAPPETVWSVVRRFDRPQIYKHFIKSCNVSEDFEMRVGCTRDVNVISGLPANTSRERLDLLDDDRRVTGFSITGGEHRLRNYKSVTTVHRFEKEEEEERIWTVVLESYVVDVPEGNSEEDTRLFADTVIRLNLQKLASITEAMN; partner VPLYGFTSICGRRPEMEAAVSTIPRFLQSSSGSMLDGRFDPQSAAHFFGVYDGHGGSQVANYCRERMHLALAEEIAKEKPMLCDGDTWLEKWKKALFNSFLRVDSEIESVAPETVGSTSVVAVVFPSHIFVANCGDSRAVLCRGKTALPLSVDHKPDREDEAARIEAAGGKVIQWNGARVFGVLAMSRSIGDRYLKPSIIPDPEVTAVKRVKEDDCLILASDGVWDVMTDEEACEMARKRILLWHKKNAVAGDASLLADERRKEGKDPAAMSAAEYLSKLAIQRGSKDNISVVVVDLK
Under “relative binding score”, `S27E` is recorded as 83.4%.
Under “relative binding score”, `E139W` is recorded as 95%.
Under “relative binding score”, `I57C` is recorded as 91%.
`V118E` — result for “relative binding score”: 14.1%.
For `T17K`, “relative binding score” read 109%.
`E14W` — result for “relative binding score”: 82.4%.
For `I57G`, “relative binding score” read 7.96%.
For `Y53M`, “relative binding score” read 75.6%.

Series 2 — effect on: binding; method: radioligand binding; concentration: 10 µM
Structure (SMILES): CNC(=O)c1cc(C(=O)N[C@H]2[C@@H]3COC[C@@H]32)cc2c1O[C@@H](CF)[C@@H]2c1ccccc1
The inhibition was 35.6% (Sigma intracellular receptor 2 (TMEM97, Homo sapiens, UniProt Q5BJF2)).
D(3) dopamine receptor (DRD3, Homo sapiens, UniProt P35462) — inhibition: 4.11%.
It gave 0.03% for inhibition (5-hydroxytryptamine receptor 1E (HTR1E, Homo sapiens, UniProt P28566)).
The inhibition was 17.7% (D(4) dopamine receptor (DRD4, Homo sapiens, UniProt P21917)).
The inhibition was 9.35% (Beta-2 adrenergic receptor (ADRB2, Homo sapiens, UniProt P07550)).

Series 3 — method: RNAcompete; form: RNA; medium: in vitro; concentration: 20 nM; notes: 7-mer, probes averaged, single round; reference: mean of 7-mers; reading: higher = stronger binding
Target: PABPC1L2, full length, GST fusion (mouse, UniProt A0ABA7IW68)
Target sequence (chain): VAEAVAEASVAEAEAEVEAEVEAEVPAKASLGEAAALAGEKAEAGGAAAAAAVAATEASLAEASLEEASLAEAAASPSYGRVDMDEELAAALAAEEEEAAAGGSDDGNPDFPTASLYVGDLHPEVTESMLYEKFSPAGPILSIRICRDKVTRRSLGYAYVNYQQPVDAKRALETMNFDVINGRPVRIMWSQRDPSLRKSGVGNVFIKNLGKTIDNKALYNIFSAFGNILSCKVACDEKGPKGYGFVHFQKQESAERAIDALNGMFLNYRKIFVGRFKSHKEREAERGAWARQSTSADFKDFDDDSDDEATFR
For `GGCAAGA`, the 7-mer Z-score was 0.564.
`CAUUUAA` gave a 7-mer Z-score of 0.407.
`AUCGUGU` has a 7-mer Z-score of -0.106.
The 7-mer Z-score of `UUGUUAA` is reported as -0.124.
`GGGAUGG` gave a 7-mer Z-score of 0.535.
`GUAUUGA` gave a 7-mer Z-score of -0.2.
`UUAUCAC` gave a 7-mer Z-score of -0.157.
The 7-mer Z-score of `UAGCUGG` is reported as -0.0573.

Series 4 — effect on: enzyme activity; action: inhibitor; concentration: 0.5 µM; reference: control
Target: Glycogen synthase kinase-3 alpha (GSK3A, Homo sapiens, UniProt P49840)
UniProt P49840, sequence (whole entry, looked up): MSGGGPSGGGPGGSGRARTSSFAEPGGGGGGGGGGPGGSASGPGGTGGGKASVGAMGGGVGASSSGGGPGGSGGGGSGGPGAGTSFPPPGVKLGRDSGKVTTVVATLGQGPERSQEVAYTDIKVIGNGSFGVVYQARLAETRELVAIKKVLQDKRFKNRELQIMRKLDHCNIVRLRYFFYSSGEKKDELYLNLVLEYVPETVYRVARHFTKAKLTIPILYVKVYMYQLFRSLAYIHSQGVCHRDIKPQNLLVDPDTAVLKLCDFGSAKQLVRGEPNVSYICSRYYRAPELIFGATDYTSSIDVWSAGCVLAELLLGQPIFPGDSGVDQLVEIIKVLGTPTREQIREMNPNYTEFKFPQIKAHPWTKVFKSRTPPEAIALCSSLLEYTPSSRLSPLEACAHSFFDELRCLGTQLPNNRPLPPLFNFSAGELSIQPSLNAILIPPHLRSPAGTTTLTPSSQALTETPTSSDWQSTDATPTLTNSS
The remaining activity of `COc1cc2nccc(Oc3ccc(NC(=S)NC(=O)c4ccccc4C)cc3)c2cc1OC` is reported as 91.4%.
For `C#Cc1cccc(Nc2ncnc3cc(OCCOC)c(OCCOC)cc23)c1`, the remaining activity was 99.3%.
The remaining activity of `CCOC(=O)c1c(C)[nH]c(/C=C2\C(=O)Nc3ccccc32)c1C` is reported as 93.5%.
For `O=C(Nc1cccc(Nc2cc(Nc3cccc(C(F)(F)F)c3)ncn2)c1)C1CC1`, the remaining activity was 101%.
With `CC(C)[C@H](CO)Nc1nc(Nc2cc(N)cc(Cl)c2)c2ncn(C(C)C)c2n1` the remaining activity was 101%.
`O=C(O)c1ccc2c3c1cccc3c(=O)n1c3ccccc3nc21` has a remaining activity of 87.3%.
`Cc1ccc(Nc2nccc(N(C)c3ccc4c(C)n(C)nc4c3)n2)cc1S(N)(=O)=O` gave a remaining activity of 101%.
`COc1ccc(C(=O)Nc2sc3c(c2C(N)=O)CCCC3)cc1OC` has a remaining activity of 83.6%.
`Oc1ccc(-c2nc(-c3ccncc3)c(-c3ccc(F)cc3)[nH]2)cc1` gave a remaining activity of 91.1%.
With `O=c1c2ccccc2[nH]c(=S)n1CCN1CCC(=C(c2ccc(F)cc2)c2ccc(F)cc2)CC1` the remaining activity was 104%.
`COc1cc2ncnc(Nc3ccc(Oc4ccccc4)cc3)c2cc1OC` has a remaining activity of 97%.
With `Cc1nc(-c2ccccc2)c(-c2ccncc2)o1` the remaining activity was 112%.

Repeated from above (series 3):
`GGGAUGG` gave a 7-mer Z-score of 0.535.
`CAUUUAA` gave a 7-mer Z-score of 0.407.
The 7-mer Z-score of `UUGUUAA` is reported as -0.124.
`GUAUUGA` gave a 7-mer Z-score of -0.2.
For `GGCAAGA`, the 7-mer Z-score was 0.564.
